{"data": "Results of several laboratories", "note": "Compare with care: the assays were run in different laboratories."}
{"Compound": "CCN(CCCCOc1ccc(CCC(=O)N2CCC(Cc3ccccc3)CC2)cc1O[11CH3])Cc1ccccc1", "test": "PET-CT", "system": "mouse, brain", "setting": "intravenous", "endpoint": "time to maximum brain uptake", "result": "~2 min"}
{"Compound": "N=C(N)NCCC[C@H](NC(=O)[C@H](CCCNC(=N)N)NC(=O)[C@H](Cc1ccccc1)NC(=O)[C@H](Cc1c[nH]c2ccccc12)NC(=O)[C@H](Cc1c[nH]c2ccccc12)NC(=O)[C@H](Cc1ccccc1)NC(=O)[C@H](CCCNC(=N)N)NC(=O)[C@H](CCCNC(=N)N)NC(=O)[C@@H](N)Cc1ccccc1)C(=O)N[C@@H](Cc1ccccc1)C(N)=O", "system": "ICR mouse, female", "setting": "intraperitoneal, 20 mg/kg", "endpoint": "time to normal behaviour", "result": "≤ 2 h"}
{"Compound": "Cc1ccccc1CN1CCC(O)(c2ccc(Cl)c(C(F)(F)F)c2)CC1", "test": "LC-MS", "system": "BALB/c mouse, serum", "setting": "intraperitoneal, 50 mg/kg", "endpoint": "time of second peak concentration", "result": "8 h"}
{"Compound": "CCCCCCCC/C=C\\CCCCCCCCOP(O)(O)=S.N", "system": "mouse", "setting": "subcutaneous, 50 mg/kg", "endpoint": "time to disappearance of toxic signs", "result": "≤ 2 h"}
{"Compound": "C=Cc1c(C)c2cc3nc(c(CC(=O)O)c4[nH]c(cc5nc(cc1[nH]2)C(C)=C5CC)c(C)c4C(=O)O)[C@@H](CCC(=O)NCCCC[C@H](NC(C)=O)C(=O)N[C@@H](Cc1ccccc1)C(=O)N[C@@H](Cc1ccccc1)C(=O)N[C@H](C(=O)N[C@@H](CC(C)C)C(=O)N[C@@H](CCCCN)C(=O)N[C@@H](CO)C(=O)NCC(=O)N[C@@H](CCC(N)=O)C(=O)N[C@@H](Cc1ccc(O)cc1)C(=O)N[C@@H](C)C(=O)N[C@@H](CO)C(=O)N[C@@H](Cc1ccc(O)cc1)C(=O)N[C@@H](Cc1c[nH]cn1)C(=O)N[C@@H](CS)C(=O)N[C@@H](Cc1c[nH]c2ccccc12)C(=O)N[C@@H](CS)C(=O)N[C@@H](Cc1c[nH]c2ccccc12)C(=O)N[C@@H](CCCNC(=N)N)C(=O)N[C@@H](CC(=O)O)C(=O)N1CCC[C@H]1C(=O)NCC(=O)N[C@@H](CCCNC(=N)N)C(=O)N[C@@H](CO)C(=O)NCC(=O)NCC(=O)N[C@@H](CO)C(=O)N[C@@H](CCCCN)C(N)=O)C(C)C)[C@@H]3C", "test": "ex vivo fluorescence imaging", "system": "mouse, 4T1 tumour-bearing, tumour", "setting": "intravenous, 13 mg/kg, single dose", "endpoint": "time to peak fluorescence", "result": "24 h"}
{"Compound": "CC(C)C[C@@H]1NC(=O)[C@H](CO)NC(=O)[C@H](CC(=O)O)NC(=O)[C@H](C(C)C)NC(=O)[C@H](CC(=O)O)NC(=O)[C@H](C)NC(=O)[C@H](CO)NC(=O)[C@H](CCCNC(=N)N)NC(=O)[C@H](CO)NC(=O)[C@H](Cc2c[nH]cn2)NC(=O)[C@@H](N)CSSC[C@@H](C(=O)N2CCC[C@H]2C(=O)N[C@@H](CCC(=O)O)C(=O)N[C@@H](CCCCN)C(=O)N[C@@H](C)C(=O)N2CCC[C@H]2C(=O)N2CCC[C@H]2C(=O)N2CCC[C@H]2C(=O)N[C@@H](CCC(N)=O)C(=O)N[C@@H](CCCCN)C(=O)N2CCC[C@H]2C(=O)N[C@@H](CO)C(=O)N[C@@H](Cc2c[nH]cn2)C(=O)N[C@@H](CCC(=O)O)C(=O)NCC(=O)N[C@@H](CO)C(=O)N[C@@H](Cc2ccc(O)cc2)C(=O)N[C@@H](CC(C)C)C(=O)N[C@@H](CC(C)C)C(=O)N[C@@H](CCC(N)=O)C(=O)N2CCC[C@H]2C(=O)O)NC(=O)[C@@H]2CCCN2C(=O)CNC(=O)[C@@H]2CCCN2C(=O)[C@H](CO)NC(=O)[C@H](CO)NC(=O)[C@H](CC(N)=O)NC(=O)[C@@H]2CCCN2C(=O)[C@H](CO)NC(=O)[C@H](CO)NC(=O)[C@H](CCC(=O)O)NC(=O)[C@H](CO)NC1=O", "test": "ELISA", "system": "mouse, plasma", "setting": "intravenous, 900 nmol/kg", "endpoint": "time to return to baseline plasma level", "result": "≤ 4 h"}
{"Compound": "O=c1cc(-c2ccccc2)oc2c(Br)c(O)c(O)c(O)c12", "system": "C57BL/6 mouse, plasma", "setting": "oral, 250 mg/kg, enterohepatic recirculation", "endpoint": "time of secondary peak", "result": "12 h"}
{"Compound": "CC[C@H](C)[C@H](NC(=O)[C@H](C)NC(=O)[C@H](CCCCN)NC(=O)[C@H](CC(C)C)NC(=O)[C@H](Cc1ccccc1)NC(=O)[C@@H](N)CC[Se]C)C(=O)N[C@@H](CCCCN)C(=O)N[C@@H](CCCCN)C(=O)N[C@@H](Cc1ccccc1)C(=O)NCC(=O)N[C@@H](CCCCN)C(=O)N[C@@H](CCC(=O)O)C(=O)N[C@@H](Cc1ccccc1)C(=O)N[C@@H](CCCCN)C(=O)N[C@@H](CCCCN)C(=O)N[C@H](C(=O)NCC(=O)N[C@@H](C)C(=O)N[C@@H](CCCCN)C(=O)N[C@@H](CC(C)C)C(=O)N[C@@H](CCCCN)C(=O)O)[C@@H](C)CC", "test": "item: selenium", "system": "mouse, serum", "setting": "intraperitoneal, 70 mg/kg, with: MBC 4 mg/L", "endpoint": "time above MBC", "result": "5.15 min"}
{"Compound": "C=Cc1c(C)c2cc3nc(c(CC(=O)O)c4[nH]c(cc5nc(cc1[nH]2)C(C)=C5CC)c(C)c4C(=O)O)[C@@H](CCC(=O)NCCCC[C@H](NC(C)=O)C(=O)N[C@@H](Cc1ccccc1)C(=O)N[C@@H](Cc1ccccc1)C(=O)N[C@H](C(=O)N[C@@H](CC(C)C)C(=O)N[C@@H](CCCCN)C(=O)N[C@@H](CO)C(=O)NCC(=O)N[C@@H](CCC(N)=O)C(=O)NCC(=O)N[C@@H](Cc1ccc(O)cc1)C(=O)N[C@@H](CCCNC(=N)N)C(=O)N[C@@H](Cc1c[nH]c2ccccc12)C(=O)N[C@@H](CC(=O)O)C(=O)N[C@@H](CO)C(=O)N[C@@H](Cc1ccc(O)cc1)C(=O)N[C@@H](CCCNC(=N)N)C(=O)N[C@@H](Cc1c[nH]c2ccccc12)C(=O)N[C@@H](Cc1c[nH]cn1)C(=O)N1CCC[C@H]1C(=O)N[C@@H](CO)C(=O)N[C@@H](CS)C(=O)N[C@@H](C)C(=O)N[C@@H](CS)C(=O)NCC(=O)NCC(=O)N[C@@H](CO)C(=O)N[C@@H](CCCCN)C(N)=O)C(C)C)[C@@H]3C", "test": "ex vivo fluorescence imaging", "system": "mouse, 4T1 tumour-bearing, tumour", "setting": "intravenous, 13 mg/kg, single dose", "endpoint": "time to peak fluorescence", "result": "24 h"}
{"Compound": "CC[C@H](C)[C@H](NC(=O)[C@H](C)NC(=O)[C@H](CCCCN)NC(=O)[C@H](CC(C)C)NC(=O)[C@@H](N)Cc1ccccc1)C(=O)N[C@@H](CCCCN)C(=O)N[C@@H](CCCCN)C(=O)N[C@@H](Cc1ccccc1)C(=O)NCC(=O)N[C@@H](CCCCN)C(=O)N[C@@H](CCC(=O)O)C(=O)N[C@@H](Cc1ccccc1)C(=O)N[C@@H](CCCCN)C(=O)N[C@@H](CCCCN)C(=O)N[C@H](C(=O)NCC(=O)N[C@@H](C)C(=O)N[C@@H](CCCCN)C(=O)N[C@@H](CC(C)C)C(=O)N[C@@H](CCCCN)C(=O)O)[C@@H](C)CC", "test": "item: selenium", "system": "mouse, serum", "setting": "intraperitoneal, 70 mg/kg, with: MBC 4 mg/L", "endpoint": "time above MBC", "result": "5.15 min"}
{"Compound": "CCCCCC1=C(NCC)C(=O)C(C/C=C(\\C)CCC=C(C)C)=C(O)C1=O", "system": "CD-1 mouse, plasma", "setting": "oral, 50 mg/kg", "endpoint": "time to return to baseline", "result": "24 h"}
{"note": "Excerpt of the above:"}
{"Compound": "CC[C@H](C)[C@H](NC(=O)[C@H](C)NC(=O)[C@H](CCCCN)NC(=O)[C@H](CC(C)C)NC(=O)[C@@H](N)Cc1ccccc1)C(=O)N[C@@H](CCCCN)C(=O)N[C@@H](CCCCN)C(=O)N[C@@H](Cc1ccccc1)C(=O)NCC(=O)N[C@@H](CCCCN)C(=O)N[C@@H](CCC(=O)O)C(=O)N[C@@H](Cc1ccccc1)C(=O)N[C@@H](CCCCN)C(=O)N[C@@H](CCCCN)C(=O)N[C@H](C(=O)NCC(=O)N[C@@H](C)C(=O)N[C@@H](CCCCN)C(=O)N[C@@H](CC(C)C)C(=O)N[C@@H](CCCCN)C(=O)O)[C@@H](C)CC", "test": "item: selenium", "system": "mouse, serum", "setting": "intraperitoneal, 70 mg/kg, with: MBC 4 mg/L", "endpoint": "time above MBC", "result": "5.15 min"}
